{"data": "Measurements from different studies", "cell line": "PC-3", "note": "Lines come from different studies, so protocols differ. ± gives the spread as reported."}
{"Structure (SMILES)": "COc1cc(/C=C(\\C#N)C(=O)Nc2nnc(C(F)(F)F)s2)ccc1OC(=O)N1CCN(C(=O)CCCC(=O)NCCCC[C@@H]2NC(=O)[C@@H](Cc3ccc(O)cc3)NC(=O)[C@H](CC(=O)O)NC(=O)CNC(=O)[C@H](CCCNC(=N)N)NC2=O)CC1", "assay": "cell growth or viability, MTT", "endpoint": "GI50", "value": "60 µM"}
{"Structure (SMILES)": "CCCNC(=O)[C@H](CC(C)C)NC(=O)[C@H](Cc1c[nH]cn1)NC(=O)CNC(=O)[C@@H](NC(=O)[C@H](C)NC(=O)[C@H](Cc1c[nH]c2ccccc12)NC(=O)[C@H](CCC(N)=O)NC(=O)[C@@H](Cc1ccccc1)NC(=O)CCCCCNC(=O)CN1CCN(CC(=O)O)CCN(CC(=O)O)CCN(CC(=O)O)CC1)C(C)C [indium-111 labelled]", "conditions": "45 min, 37 °C", "endpoint": "maximum internalization", "value": "14%"}
{"Structure (SMILES)": "O=C(O)CCC(NP(=O)(O)OCCC[C@@H](NC(=O)CCC(NC(=O)CCCCCNC(=O)CCCCCNC(=O)c1ccc([18F])cc1)C(=O)O)C(=O)O)C(=O)O (stereo partly drawn)", "conditions": "1 h", "endpoint": "cell uptake", "value": "0.14 ± 0.04%"}
{"Structure (SMILES)": "COc1cc(C)cc2c1OCO2", "assay": "cell growth or viability, MTT", "conditions": "72 h", "endpoint": "GI50", "value": "3.51 µM"}
{"Structure (SMILES)": "CCCCCCCCC=CCCCCCCCC(=O)OC(COC(=O)Cc1c(C)n(C(=O)c2ccc(Cl)cc2)c2ccc(OC)cc12)COP(=O)([O-])OCC[N+](C)(C)C (stereo not drawn)", "assay": "SRB", "how to read": "relative to: MCF-10A IC50 over PC-3 IC50", "endpoint": "selectivity index", "value": 5.43}
{"Structure (SMILES)": "O=C(O)CCC(NP(=O)(O)OCCC[C@@H](NC(=O)CCC(NC(=O)c1ccc([18F])cc1)C(=O)O)C(=O)O)C(=O)O (stereo partly drawn)", "conditions": "2 h", "endpoint": "cell uptake", "value": "0.07 ± 0.02%"}
{"Structure (SMILES)": "C=CCc1cc(OC)c(OC)c(OC)c1OC", "assay": "cell growth or viability, MTT", "conditions": "72 h", "endpoint": "GI50", "value": "> 250 µM"}
{"Structure (SMILES)": "COc1cc(C(c2c(C)nn(-c3ccccc3)c2O)c2c(C)nn(-c3ccccc3)c2O)cc(OC)c1OC", "assay": "cell growth or viability, MTT", "conditions": "48 h", "endpoint": "IC50", "value": "28.4 µM"}
{"Structure (SMILES)": "CCCc1cc(OC)c2c(c1OC)OCO2", "assay": "cell growth or viability, MTT", "conditions": "72 h", "endpoint": "GI50", "value": "> 250 µM"}
{"Structure (SMILES)": "CSCC[C@H](NC(=O)[C@H](CC(C)C)NC(=O)[C@H](Cc1c[nH]cn1)NC(=O)CNC(=O)[C@@H](NC(=O)[C@H](C)NC(=O)[C@H](Cc1c[nH]c2ccccc12)NC(=O)[C@H](CCC(N)=O)NC(=O)CCCCCCCNC(=O)[C@@H](CO)NC(=O)[C@@H](CO)NC(=O)[C@@H](CO)NC(=O)CN1CCN(CC(=O)O)CCN(CC(=O)O)CCN(CC(=O)O)CC1)C(C)C)C(N)=O [indium-111 labelled]", "conditions": "concentration not given, 8 h, normoxia", "endpoint": "retained internalized radioactivity", "value": "34.8%"}
{"Structure (SMILES)": "COc1ccc(C(c2c(C)nn(-c3ccccc3)c2O)c2c(C)nn(-c3ccccc3)c2O)cc1OC", "assay": "cell growth or viability, MTT", "conditions": "48 h", "endpoint": "IC50", "value": "26.6 µM"}
{"Structure (SMILES)": "CCC[P+](c1ccccc1)(c1ccccc1)c1ccccc1", "assay": "cell growth or viability, MTT", "conditions": "72 h", "endpoint": "GI50", "value": "1.83 µM"}
{"Structure (SMILES)": "CSCC[C@H](NC(=O)[C@H](CC(C)C)NC(=O)[C@H](Cc1c[nH]cn1)NC(=O)CNC(=O)[C@@H](NC(=O)[C@H](C)NC(=O)[C@H](Cc1c[nH]c2ccccc12)NC(=O)[C@H](CCC(N)=O)NC(=O)CCCCCCCNC(=S)Nc1ccc(C[C@H]2CN(CC(=O)O)CCN(CC(=O)O)CCN2CC(=O)O)cc1)C(C)C)C(N)=O [copper-64 labelled]", "conditions": "0 to 60 min, 64Cu-labelled", "endpoint": "initial internalization velocity", "value": "8.9 fmol/mg/min"}
{"Structure (SMILES)": "CC/C=C\\C/C=C\\C/C=C\\C/C=C\\C/C=C\\C/C=C\\CCC(=O)Nc1ccn(C2OC(CO)C(O)C2(F)F)c(=O)n1 (stereo not drawn)", "assay": "NCI60 screen", "endpoint": "CC50", "value": "67.8 µM"}
{"Structure (SMILES)": "CCCCCCCCC[P+](c1ccccc1)(c1ccccc1)c1ccccc1", "assay": "cell growth or viability, MTT", "conditions": "72 h", "endpoint": "GI50", "value": "0.109 µM"}
{"Structure (SMILES)": "CSCC[C@H](NC(=O)[C@H](CC(C)C)NC(=O)[C@H](Cc1c[nH]cn1)NC(=O)CNC(=O)[C@@H](NC(=O)[C@H](C)NC(=O)[C@H](Cc1c[nH]c2ccccc12)NC(=O)[C@H](CCC(N)=O)NC(=O)CCCCCCCNC(=O)[C@@H](CCCCNC(=O)Cn1ccnc1[N+](=O)[O-])NC(=O)[C@@H](CCCCNC(=O)Cn1ccnc1[N+](=O)[O-])NC(=O)[C@@H](CCCCNC(=O)Cn1ccnc1[N+](=O)[O-])NC(=O)CN1CCN(CC(=O)O)CCN(CC(=O)O)CCN(CC(=O)O)CC1)C(C)C)C(N)=O [indium-111 labelled]", "conditions": "8 h", "how to read": "relative to: hypoxic over normoxic", "endpoint": "hypoxia enhancement factor", "value": "3.29 ± 0.25"}
{"Structure (SMILES)": "CCCc1cc2c(c(OC)c1OC)OCO2", "assay": "cell growth or viability, MTT", "conditions": "72 h", "endpoint": "GI50", "value": "> 250 µM"}
{"Structure (SMILES)": "CSCC[C@H](NC(=O)[C@H](CC(C)C)NC(=O)[C@H](Cc1c[nH]cn1)NC(=O)CNC(=O)[C@@H](NC(=O)[C@H](C)NC(=O)[C@H](Cc1c[nH]c2ccccc12)NC(=O)[C@H](CCC(N)=O)NC(=O)CCCCCCCNC(=O)[C@@H](CO)NC(=O)[C@@H](CO)NC(=O)[C@@H](CCCCNC(=O)Cn1ccnc1[N+](=O)[O-])NC(=O)CN1CCN(CC(=O)O)CCN(CC(=O)O)CCN(CC(=O)O)CC1)C(C)C)C(N)=O [indium-111 labelled]", "conditions": "concentration not given, 8 h, normoxia", "endpoint": "retained internalized radioactivity", "value": "35.3%"}
{"Structure (SMILES)": "Cc1nn(-c2ccccc2)c(O)c1C(c1ccccc1O)c1c(C)nn(-c2ccccc2)c1O", "assay": "cell growth or viability, MTT", "conditions": "48 h", "endpoint": "IC50", "value": "> 40 µM"}
{"Structure (SMILES)": "O=C(C[P+]([Au-][Cl])(c1ccccc1)c1ccccc1)[O][Ti+2][O]C(=O)C[P+]([Au-][Cl])(c1ccccc1)c1ccccc1.c1cc[cH-]c1.c1cc[cH-]c1", "assay": "cell viability, XTT", "conditions": "72 h", "endpoint": "IC50", "value": "27.1 µM"}
{"Structure (SMILES)": "CCCc1cc(OC)c2c(c1)OCO2", "assay": "cell growth or viability, MTT", "conditions": "72 h", "endpoint": "GI50", "value": "> 250 µM"}
{"Structure (SMILES)": "CSCC[C@H](NC(=O)[C@H](CC(C)C)NC(=O)[C@H](Cc1c[nH]cn1)NC(=O)CNC(=O)[C@@H](NC(=O)[C@H](C)NC(=O)[C@H](Cc1c[nH]c2ccccc12)NC(=O)[C@H](CCC(N)=O)NC(=O)CNC(=O)[C@H](CO)NC(=O)CNC(=O)CCCCCCCNC(=O)CCC(=O)Nc1ccc(CNC23CNCCNCC(N)(CNCCNC2)CNCCNC3)cc1)C(C)C)C(N)=O [copper-64 labelled]", "conditions": "15 min", "how to read": "relative to: internalization at 2 h", "endpoint": "internalization", "value": "43%"}
{"Structure (SMILES)": "CSCC[C@H](NC(=O)[C@H](CC(C)C)NC(=O)[C@H](Cc1c[nH]cn1)NC(=O)CNC(=O)[C@@H](NC(=O)[C@H](C)NC(=O)[C@H](Cc1c[nH]c2ccccc12)NC(=O)[C@H](CCC(N)=O)NC(=O)CCCCCNC(=O)CCN(CCNC(=O)c1ccc(F)cc1)CCC(=O)NCCCC[C@@H]1NC(=O)[C@@H](Cc2ccc(O)cc2)NC(=O)[C@H](CC(=O)O)NC(=O)CNC(=O)[C@H](CCCNC(=N)N)NC1=O)C(C)C)C(N)=O [fluorine-18 labelled]", "conditions": "5 min, 37 °C", "how to read": "relative to: added radioactivity", "endpoint": "cellular uptake", "value": "2.64 ± 0.22%"}
{"Structure (SMILES)": "O=C(O)CCC(NP(=O)(O)OCCC[C@@H](NC(=O)CCC(NC(=O)CCCCCNC(=O)c1ccc([18F])cc1)C(=O)O)C(=O)O)C(=O)O (stereo partly drawn)", "conditions": "2 h", "endpoint": "cell uptake", "value": "0.08 ± 0.02%"}
{"note": "A few entries again:"}
{"Structure (SMILES)": "CSCC[C@H](NC(=O)[C@H](CC(C)C)NC(=O)[C@H](Cc1c[nH]cn1)NC(=O)CNC(=O)[C@@H](NC(=O)[C@H](C)NC(=O)[C@H](Cc1c[nH]c2ccccc12)NC(=O)[C@H](CCC(N)=O)NC(=O)CCCCCNC(=O)CCN(CCNC(=O)c1ccc(F)cc1)CCC(=O)NCCCC[C@@H]1NC(=O)[C@@H](Cc2ccc(O)cc2)NC(=O)[C@H](CC(=O)O)NC(=O)CNC(=O)[C@H](CCCNC(=N)N)NC1=O)C(C)C)C(N)=O [fluorine-18 labelled]", "conditions": "5 min, 37 °C", "how to read": "relative to: added radioactivity", "endpoint": "cellular uptake", "value": "2.64 ± 0.22%"}
